Assay results collected from several papers.
Lines come from different studies, so protocols differ. ± gives the spread as reported.
Cell line: 22Rv1

CCc1cc(N2C(=S)N(c3ccc(C#N)c(C(F)(F)F)c3)C(=O)C2(C)C)ccc1OCCN1CCN(CC(=O)Nc2cccc(NC3CCC(=O)NC3=O)c2)[C@H](C)C1 (some centres unmarked)  GI50 (cell proliferation; 120 h, 10% FBS): 6.3 ± 0.621 µM
C=CC(=O)N1[C@H](c2ccc3c(c2)OCO3)c2[nH]c3ccccc3c2C[C@H]1C(=O)N1CCOCC1  increased accessible sites (ATAC-seq; concentration not given, log2FC 1): 903 sites
CCN(C(=O)c1cc(F)ccc1Oc1nncnc1N1CCC2(C1)CN([C@H](CCCN(C)CCOC)C(C)C)C2)C(C)C  GI50 (cell growth or viability; 72 h): > 10 µM
CNS(=O)(=O)Nc1nccc(Cc2c(C)c3ccc(Oc4ncccc4F)cc3oc2=O)c1F  IC50 (cell viability; 7 days): > 1 µM
Cc1n[nH]c(C)c1CCCOc1cc(C(=O)NCCCCC(NC(=O)CN2CCN(CC(=O)[O-])CCN(CC(=O)[O-])CCN(CC(=O)[O-])CC2)C(=O)NCC2CCC(C(=O)NC(Cc3ccc4ccccc4c3)C(=O)NCCCCC(NC(=O)NC(CCC(=O)O)C(=O)O)C(=O)O)CC2)ccc1F.[177Lu+3] (centres unmarked)  cell retention (24 h, efflux; reference: dose): 4.07 ± 0.81%
CCOc1cncc(-c2ccc(NC(=O)C3(c4ccnc(NS(=O)(=O)C5CC5)n4)CCOCC3)nc2)n1  IC50 (cell growth or viability, ATP luminescence; 72 h): 0.054 µM
O=C([O-])CN1CCN(CC(=O)[O-])CCN(CC(=O)NCC2CCC(C(=O)NC(Cc3ccc4ccccc4c3)C(=O)NCCCCC(NC(=O)NC(CCC(=O)O)C(=O)O)C(=O)O)CC2)CCN(CC(=O)[O-])CC1.[68Ga+3] (centres unmarked)  maximum uptake (2 h; reference: added dose): 3.51 ± 0.33%
Cc1ncsc1-c1ccc(C(C)NC(=O)C2CC(O)CN2C(=O)C(NC(=O)CCCCCCCCCCN2CCCC(Nc3ncc(Cl)c(Nc4ccccc4S(=O)(=O)C(C)C)n3)C2)C(C)(C)C)cc1 (centres unmarked)  log2 fold change (RNA-seq, refers to: SP1 mRNA; concentration not given; reference: DMSO): -1.06

Repeated from above:
Cc1n[nH]c(C)c1CCCOc1cc(C(=O)NCCCCC(NC(=O)CN2CCN(CC(=O)[O-])CCN(CC(=O)[O-])CCN(CC(=O)[O-])CC2)C(=O)NCC2CCC(C(=O)NC(Cc3ccc4ccccc4c3)C(=O)NCCCCC(NC(=O)NC(CCC(=O)O)C(=O)O)C(=O)O)CC2)ccc1F.[177Lu+3] (centres unmarked)  cell retention (24 h, efflux; reference: dose): 4.07 ± 0.81%
